Experimental data collected from several papers.
Every numbered part comes from another study and shows a few of its results, in no order.

Study 1
Target: Interferon regulatory factor 5, full length, phosphomimetic (IRF5, Homo sapiens, UniProt Q13568-2, residues 1-514, K96S/S451D/S453D/S456D/S462D)
Method: protein-binding microarray
Form: double-stranded DNA, one strand shown
Sample: in vitro
Tested at: 250 nM
Notes: 60-bp whole probe
With: salmon DNA 0.4 mg/ml
Reference: random background probes
Reading: higher = stronger binding
Measurement: log fluorescence
All sequences stand within: GCCTAGCAC … GTCTTGATTCGCTTGACGCTGCTG
GACGATATCTGTTTCGAGACGTGCTAG: 4.3 z-score
TTAGGACTGGGACAGGGTTAGTGCTAG: -0.57 z-score
TTAGATCTCTGTCTCGATTAGTGCTAG: 0.442 z-score
TTAGGTTTCGGGTATCCGTTAGTGCTA: 8.91 z-score
TTAGGTTACGGTATCGGTTAGTGCTAG: 4.59 z-score
TTAGATTTCAGATCCGATTAGTGCTAG: 0.879 z-score

Study 2
Target: Histone acetyltransferase KAT6A, both winged helices, GST fusion (KAT6A, Homo sapiens, UniProt Q92794, residues 1-181)
Method: protein binding microarray
Form: double-stranded DNA, one strand shown
Sample: in vitro
Tested at: not given
Notes: 8-mer, flanks averaged, mean of 2 arrays, mostly near background
Reference: not given
Reading: higher = stronger binding
Measurement: E-score
Construct (chain): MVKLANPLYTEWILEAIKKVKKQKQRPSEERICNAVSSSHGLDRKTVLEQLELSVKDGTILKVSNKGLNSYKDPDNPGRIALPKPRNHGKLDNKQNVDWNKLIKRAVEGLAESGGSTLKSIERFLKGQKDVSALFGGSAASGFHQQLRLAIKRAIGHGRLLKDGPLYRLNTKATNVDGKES
AATCGATA: -0.0984
CGCTTCAG: 0.00556
ACAACGGC: 0.22
TCTCCCCA: -0.27
AAGTGCGT: 0.0197
AACGTGAA: 0.0133
AAAAGCCT: -0.199
GACACATA: -0.0961
CTTTTTGC: -0.0412
CAGCCGGA: 0.131
AAATACCC: 0.0228

Study 3
Target: Sal-like protein 4, full length isoform B (SALL4, Homo sapiens, UniProt Q9UJQ4-2, residues 1-616)
Method: universal PBM
Form: double-stranded DNA, one strand shown
Sample: in vitro
Tested at: not given
Notes: 8-mer, flanks averaged, mean of replicates
Reading: higher = stronger binding
Measurement: E-score
GTAAACGA: 0.171
ACCGCATA: 0.214
CACGACCA: -0.111
ATTTCTTA: 0.27
CTAAATAG: 0.138
ATTATTGG: 0.283
CAGCGGGA: -0.316
TAGGGCGA: -0.0662
TAGAGAGA: -0.0212

Mixed results
PhoQ, residues 284 288 289 292 302 303 ASASEQ  fold induction (PhoP, residues 12 14 15 18 19 LWHSL (Escherichia coli, UniProt P23836); Sort-seq, refers to: YFP reporter; E. coli; PhoQ-PhoP variant library, with: 10 µM Mg2+; reference: high Mg2+ state, higher = stronger signaling): 19.1

Some of these lines once more (study 2):
AAGTGCGT: 0.0197
AAAAGCCT: -0.199
CAGCCGGA: 0.131
